Experimental data gathered from unrelated publications.
Numbered parts are unrelated; each lists some results of a single study.

Set 1 — method: aptamer microarray, sandwich; form: DNA with 2'F-ANA; medium: in vitro; tested at: 200 nM; added: Cy3 exosite-II aptamer, 400 nM; reading: higher = stronger binding; strand: GGTTGGTGTGGTTGG
Target: Prothrombin, mature alpha-thrombin (F2, Homo sapiens, UniProt P00734)
Setting: whole 15-mer aptamer, many near background
| Modification | mean fluorescence intensity [a.u.] |
| --- | --- |
| 2'F-ANA at 1 2 5 6 7 8 9 10 11 12 15 | 66.3 |
| 2'F-ANA at 4 5 6 10 13 | 42.4 |
| 2'F-ANA at 2 3 4 6 9 13 14 | 199 |
| 2'F-ANA at 1 3 4 6 7 12 14 | 110 |
| 2'F-ANA at 1 7 8 12 14 | 88.1 |
| 2'F-ANA at 1 5 9 10 11 13 14 15 | 48 |
| 2'F-ANA at 3 4 8 10 12 13 | 293 |
| 2'F-ANA at 4 5 7 11 15 | 56 |

Set 2 — method: protein binding microarray; form: double-stranded DNA, one strand shown; medium: in vitro; tested at: not given; reference: not given; reading: higher = stronger binding
Target: Histone acetyltransferase KAT6A, both winged helices, GST fusion (KAT6A, Homo sapiens, UniProt Q92794, residues 1-181)
Setting: 8-mer, flanks averaged, mean of 2 arrays, mostly near background
Target sequence (chain): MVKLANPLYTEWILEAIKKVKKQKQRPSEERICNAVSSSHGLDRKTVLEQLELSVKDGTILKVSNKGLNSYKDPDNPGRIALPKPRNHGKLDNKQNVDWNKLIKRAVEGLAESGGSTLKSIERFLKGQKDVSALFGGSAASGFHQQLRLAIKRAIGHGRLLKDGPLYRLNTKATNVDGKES
| Strand | E-score |
| --- | --- |
| CTCTCCAC | -0.256 |
| ATAACCAG | -0.177 |
| GGATGACC | -0.0608 |
| AGCCTCCG | -0.0515 |
| ACGGCCAT | 0.138 |
| AGTGATCC | -0.0459 |
| ACGTTTCG | 0.0522 |
| CACTATCA | -0.129 |
| AGACATAC | -0.103 |

Set 3 — method: RNA Bind-n-Seq; form: RNA; medium: in vitro; tested at: 365 nM; reference: no-protein control; reading: higher = stronger binding
Target: RNA binding protein fox-1 homolog 2, RRM domain, GST-SBP tag (RBFOX2, Homo sapiens, UniProt O43251-10, residues 100-194)
Setting: natural RNA segment, single round, ends assumed
Construct (chain): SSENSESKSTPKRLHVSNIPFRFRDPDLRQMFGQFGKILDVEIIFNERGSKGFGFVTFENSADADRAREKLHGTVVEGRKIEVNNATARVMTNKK
| Strand | RBNS enrichment (R) |
| --- | --- |
| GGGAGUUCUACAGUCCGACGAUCGUCUCCUGCAUCCAAAUGUCCUCUUUGGCUCAAAAAGUAGGCCAGGCAUGGUGGUUCAUGCCUGUAAUAGCACUUUGGGAGACUGAGGUGGGAGGAUCACUUGGGGCCAGUGGAAUUCUCGGGUGCCAA | 0.571 |
| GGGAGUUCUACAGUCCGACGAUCAUUUUCUCAGUGUAUUUUUGUAAAAAAUAUAUAAAGGGGGUGUUAAUCGGUGUAAAUCGCUGUUUGGAUUUCCUGAUUUUAUAAUAGGGUGGCUGGUUAAUAUCUCACACUGGAAUUCUCGGGUGCCAA | 0.316 |
| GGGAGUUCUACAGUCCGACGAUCUUGAGUUGAGAGCUUUUUUAGGUUUGAGGGGCUUGAUUUUUUUGUAAAUAAAAUUAUGCUUUGUGGCUAUCCAUCAACAUAAGUAUAAAAAGAAAGAACGCUUCAACCCCUGGAAUUCUCGGGUGCCAA | 0.292 |
| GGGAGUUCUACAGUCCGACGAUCAGUGUUGAUGGAAGAAAUCAUUUUUAAUGUGUACUGUAAAACUUGAAAUACUCAGGAGCUGAGUGAGUAUGUUUGUUGCUACUUACAAUCCCAACCUGUUAGUCCCAGUAUGGAAUUCUCGGGUGCCAA | 0.425 |
| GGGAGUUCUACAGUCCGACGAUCGGCCAUUCUCUGAUGCAGGGCACUUGCUCCACACUCUGGGAACCCAGAUUCACCAGUCUGCCCUGUCACGUAGUUGAAGGAGUUGCAUUUAUCUUUCUGGCUCCUAAUUCUGGAAUUCUCGGGUGCCAA | 2.42 |
| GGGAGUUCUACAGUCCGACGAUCGGCACCGGGCAGGGGCCAGUCCCUCAGCCCCUGGACCACUGGAGAAAAGGAAGACGAAGAGUUUGGAGCACCUCUCCCUAGCAUCCUCUCAGCUGGAGAGGCAGCAUUGGUGGAAUUCUCGGGUGCCAA | 0.404 |
| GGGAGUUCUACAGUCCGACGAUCUCUCAGUGCAUGCUGUGCUUUUUCACAUUUGCUCUGGGUUAUCUGGGAAGUAUCAGGUUCUGGGAGGCAACAGCAUUAAGUGAUAAGAAAAGGAGACAUUCUGGCAAAGCUGGAAUUCUCGGGUGCCAA | 2.09 |

Single results of other studies
| Substance | target | test | system | setting | scale | measurement | result |
| --- | --- | --- | --- | --- | --- | --- | --- |
| PhoQ, residues 284 288 289 292 302 303 DDMDFR | PhoP, residues 12 14 15 18 19 VHSCL (Escherichia coli, UniProt P23836) | Sort-seq, refers to: YFP reporter | E. coli | PhoQ-PhoP variant library, added: 10 µM Mg2+ | reference: high Mg2+ state, higher = stronger signaling | fold induction | 1.57 |
